Published values from different studies.
Values joined by “and” are separate records of one study, mostly repeats; a detail may differ. Numbers after ± are the reported error.
MT-CYB/UQCRFS1: MT-CYB/UQCRFS1 (Homo sapiens, UniProt P00156+P47985)

With `NC/C(=C\F)COc1cccc(Cn2c(=S)[nH]c(=O)c3[nH]cnc32)c1` the remaining activity was 69.1% (Peroxidasin homolog (PXDN, Homo sapiens, UniProt Q92626); Amplex UltraRed; 5 µM; relative to: control).
For `COC(=O)CC1=NN(c2nc3ccccc3[nH]2)C(=O)C1`, the Hill slope was -0.7 (Protein lin-28 homolog A (Mus musculus, UniProt Q8K3Y3)).
For `CCCCOc1cc(C(=O)NCCN(CC)CC)c2ccccc2n1`, “loss of binding free energy” read 5.3 kcal/mol (PKD2L1 (Homo sapiens, UniProt Q9P0L9, F549I)).
`CN(C)C(=O)C(CCN1CCC(O)(c2ccc(Cl)cc2)CC1)(c1ccccc1)c1ccccc1` gave a Hill coefficient of 0.777 ± 0.071 (Calcium-activated potassium channel subunit alpha-1, with LRRC26 γ1 subunit (KCNMA1, Homo sapiens, UniProt Q12791); BK channel conductance, inside-out patch clamp; BKα/γ1, Vm 110 mV, nominally Ca2+-free).
The kcat of `OC[C@H]1OC(O)[C@H](O)[C@@H](O)[C@@H]1O` (some centres unmarked) is reported as 78 ± 4 s⁻¹ (Hexokinase-3 (HK3, Homo sapiens, UniProt P52790, E254A); substrate inhibition; mutant E254A, partial substrate inhibition model, added: ATP 20 mM).
Under “normalised MST signal”, `NCCCS(=O)(=O)O` is recorded as -0.0333 (SLC6A6 (Homo sapiens, UniProt P31641, G62A); binding, microscale thermophoresis; 15.6 µM, room temperature, added: 50 nM labelled protein; higher = more binding).
Under “melting temperature shift”, `COc1ccc(F)cc1C(=O)NCc1ccc(-c2nn([C@@H](C)C(F)(F)F)c(N)c2C(N)=O)cc1` is recorded as 13.5 °C (BTK (Homo sapiens, UniProt Q06187); differential scanning fluorimetry; relative to: apo protein).
`NC(=O)NOCCCCCCCCCCCCCC[P+](c1ccccc1)(c1ccccc1)c1ccccc1.O=C([O-])C(F)(F)F` — result for “oxygen consumption rate”: 62 ± 10.3% (MT-CYB/UQCRFS1; complex III-dependent respiration, Seahorse XF96; HCT-116; 1.5 µM, 24 h; relative to: control).
With `CC(C)C[C@@H](C=O)NC(=O)[C@H](CC(C)C)NC(=O)[C@H](CC(C)C)NC(=O)OCc1ccccc1` the FLuc/RLuc ratio was 1.15 (Protein transport protein Sec61 subunit alpha isoform 1 (Homo sapiens, UniProt P61619); Sec61-dependent translocation, inhibitor, item: CD4 signal peptide-FLuc reporter; HEK293; concentration not given, 6 h; relative to: mock).
`Nc1ncnc2c1ncn2[C@@H]1O[C@H](COP(=O)(O)CP(=O)(O)OP(=O)(O)O)[C@@H](O)[C@H]1O` has a specific binding of 455 CCPM and 482 CCPM (P2X purinoceptor 1 (P2RX1, Homo sapiens, UniProt P51575, E282A); saturation binding; HEK293; 13 nM).
`O=C1C=Nc2ccc(Br)cc21` — result for “share of total products”: 47.1% (Dehaloperoxidase B, ferric (Amphitrite ornata, UniProt Q9NAV7); product, HPLC; added: 5-bromoindole 500 µM, H2O2 1000 µM).
`Nc1ncnc2c1ncn2[C@@H]1O[C@H](CO[P@](=O)(O)O[P@](=O)(O)O[P@@](=O)(O)S)[C@@H](O)[C@H]1O` gave a ΔH of -0.221 kcal/mol (GUK1 (Homo sapiens, UniProt Q16774); binding, isothermal titration calorimetry; molar ratio 3.279, fitted curve).
`CC[C@@H]1[C@H](F)C(=O)N[C@@H]1COc1nccc2cc(C(N)=O)c(OC)cc12` gave an inhibition of -5.2% (MAP3K2 (Homo sapiens, UniProt Q9Y2U5); ATP-site probe binding, ActivX profiling; THP-1 cell lysate; 0.2 mM, Lys1 site).
`CCC1(O)CCCN(C(=O)c2ccc(-c3ccc(F)c(NC(=O)CCl)c3)cc2)C1` (centres unmarked) has a protein adduct of 100% (DNA dC->dU-editing enzyme APOBEC-3A (Homo sapiens, UniProt P31941); covalent modifier, intact protein mass spectrometry, item: adduct +26309 Da; 125 µM, 3 h, 5-fold molar excess).
The koff of `O=c1ccn([C@@H]2O[C@H](COP(=O)(O)OP(=O)(O)O)[C@@H](O)[C@H]2O)c(=O)[nH]1` is reported as 560 ± 10 s⁻¹ (ABO (Homo sapiens, UniProt P16442, G235S/G268A/L266M/R176G/W181M); methyl-TROSY NMR titration lineshape; mutant presaturated with H-disaccharide).
`CC(=O)Nc1ccc(O)cc1` — result for “chemical shift change”: -0.086 ppm (BRD4 (Homo sapiens, UniProt O60885); 19F NMR, item: tyrosine 118; 188 µM; relative to: free protein).
`CC(=O)N[C@@H](CO)C(=O)N[C@@H](CC(C)C)C(=O)N[C@@H](CCC(=O)O)C(=O)N[C@@H](CCC(=O)O)C(=O)N1CCC[C@H]1C(=O)N[C@@H](Cc1c[nH]cn1)C(=O)N[C@@H](CO)C(=O)N1CCC[C@H]1C(=O)N[C@@H](CCC(=O)O)C(=O)N[C@H](C(=O)NCC(=O)N[C@@H](CCC(=O)O)C(=O)N[C@@H](CCCCN)C(=O)N[C@H](C(=O)N[C@H](C(=O)N[C@@H](C)C(=O)NCC(=O)N[C@@H](CCC(=O)O)C(=O)N[C@H](C(=O)N[C@@H](CC(N)=O)C(N)=O)C(C)C)C(C)C)C(C)C)[C@@H](C)O` gave a binding stoichiometry of 1.04 (Kelch-like ECH-associated protein 1, Kelch domain (KEAP1, Homo sapiens, UniProt Q14145); ITC; concentration not given).
`O=C1Nc2c(ccc(Cl)c2Cl)C1=NO` gave a Hill coefficient of 1.3 (KCNN4/CALM1 (Homo sapiens, UniProt O15554+P0DP23, N201F); ion current, activator, whole-cell patch clamp; N201F mutant).
`CCCN(O)N=Nc1ccc(S(=O)(=O)Nc2cc(C)on2)cc1` gave an inhibition of 45 ± 1.68% (α-glucosidase, rat intestine; enzyme activity; 180 µg/mL, added: 4-nitrophenyl α-D-glucopyranoside).
For `NC(=O)NO`, “oxygen consumption rate” read 94.4 ± 3.28% (MT-CYB/UQCRFS1; complex III-dependent respiration, Seahorse XF96; HCT-116; 3000 µM, 24 h; relative to: control).
`C=CC(=O)Nc1cccc(CN(C(=O)Nc2cccc(C(F)(F)F)c2)C2CCN(C(C)CCC)CC2)c1` (centres unmarked) — result for “covalent adduct formation”: 0% (DCN1-like protein 1 (Homo sapiens, UniProt Q96GG9); covalent binder, LC-TOF mass spectrometry; 60 µM, overnight, 4 °C, added: DCN1-like protein 1 30 µM).
The Dmax of `O=C1CCC(N2Cc3cc(C4CCN(Cc5ccccc5)CC4)ccc3C2=O)C(=O)N1` (centres unmarked) is reported as 55% (CRBN/Zinc finger protein Helios (Homo sapiens, UniProt Q96SW2+Q9UKS7); degrader, immunoblot, item: Helios; Jurkat; 4 h).
With `CCCN(O)N=Nc1ccc(S(=O)(=O)Nc2onc(C)c2C)cc1` the inhibition was 7.5 ± 0.04% (α-glucosidase, rat intestine; enzyme activity; 20 µg/mL, added: 4-nitrophenyl α-D-glucopyranoside).
Under “thermal stability ratio”, `O=C(COP(=O)(O)O)[C@@H](O)[C@H](O)[C@H](O)COP(=O)(O)O` is recorded as 0.592 (OXSR1 (Homo sapiens, UniProt O95747); thermal proteome profiling; HepG2 cell lysate; concentration not given, 57 over 37 °C, mean; relative to: compound over control).
Under “oxygen consumption rate”, `NC(=O)NOCCCCCCCCCC[P+](c1ccccc1)(c1ccccc1)c1ccccc1.O=C([O-])C(F)(F)F` is recorded as 35 ± 9.26% (MT-CYB/UQCRFS1; complex III-dependent respiration, Seahorse XF96; HCT-116; 40 µM, 24 h; relative to: control).
With `COc1cc(O)c2c(c1)oc(=O)c1c3cc(O)c(O)cc3oc21` the ΔS was -318 J/(mol·K) (MAL12 (Saccharomyces cerevisiae S288c, UniProt P53341); fluorescence quenching; 310 K).
